# Experimental data gathered from unrelated publications.
# Every numbered part comes from another study and shows a few of its results, in no order. Changes are numbered by the printed parent chain.

# Set 1 — technique: protein-binding microarray; form: double-stranded DNA, one strand shown; sample: in vitro; concentration: 2540 nM top; notes: 60-bp whole probe; together with: salmon DNA 0.4 mg/ml; baseline: random background probes; direction: higher = stronger binding; all sequences stand within: GCCTAGCAC … GTCTTGATTCGCTTGACGCTGCTG
# Target: Interferon regulatory factor 3, full length, phosphomimetic (IRF3, Homo sapiens, UniProt Q14653, residues 1-427, S386D/S396D/S398D/S402D/T404D/S405D)
# Target sequence (chain): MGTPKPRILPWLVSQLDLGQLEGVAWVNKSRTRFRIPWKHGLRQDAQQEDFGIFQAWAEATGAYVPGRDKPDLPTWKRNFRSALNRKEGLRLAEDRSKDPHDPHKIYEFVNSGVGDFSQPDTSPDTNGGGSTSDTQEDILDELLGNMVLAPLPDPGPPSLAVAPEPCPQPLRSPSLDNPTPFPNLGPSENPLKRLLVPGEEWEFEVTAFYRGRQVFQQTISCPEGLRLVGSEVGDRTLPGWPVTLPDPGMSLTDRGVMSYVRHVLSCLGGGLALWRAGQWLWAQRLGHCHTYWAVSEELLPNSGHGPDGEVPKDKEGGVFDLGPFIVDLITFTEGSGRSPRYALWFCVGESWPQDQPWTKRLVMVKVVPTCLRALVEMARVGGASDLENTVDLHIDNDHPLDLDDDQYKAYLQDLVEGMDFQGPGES
Sequence,fitted relative affinity [z-score]
TTAGGTTTCGACTATCGGTTCGTGCTA,2.57
TTAGGTTTCGGTCTCGGGTAGTGCTAG,8.56
TTAGGTCTCCTTGTCCTTTAGTGCTAG,0.993
TTAGGTTTCGGTATCGGTTAGTGCTAG,8.38
TCAATTTTTACTTTCTGACTGTGCTAG,2.31
TTAGGTATCGGTATAGGTTAGTGCTAG,3.18
GACGGTTTCGGTATCGGGAGGTGCTAG,8.46
GACGGTATGCTTCTCCTGACGTGCTAG,0.116
GACGATATCAGACTGGACACGTGCTAG,0.262
GACGGTTTCGGTTTCGGGAAGTGCTAG,10.9
TTAGATTTCGGGAATGGATTAGTGCTA,0.831
GACGATATAAGTCTCGAGACGTGCTAG,-0.0605
TTTCTCTCATTATGTGGGTTGTGCTAG,2.76
TTGGGTATCGGTCTCGGTTAGTGCTAG,3.31
CCCTGGCTCCCTATAAAAGGGTGCTAG,0.163
TCAGTTACCCATCTCAAACTGTGCTAG,4.92
GACGATATCGGGTATCGAAACGTGCTA,0.808
GACGAACTGAGTCTGGAGACGTGCTAG,-0.44
GACGGTATCGGGACTGGGGCCGTGCTA,1.44

# Set 2 — technique: RNAcompete; form: RNA; sample: in vitro; concentration: 20 nM; notes: 7-mer, probes averaged, single round; baseline: mean of 7-mers; direction: higher = stronger binding
# Target: PABPC1L2, full length, GST fusion (mouse, UniProt A0ABA7IW68)
# Residues (chain): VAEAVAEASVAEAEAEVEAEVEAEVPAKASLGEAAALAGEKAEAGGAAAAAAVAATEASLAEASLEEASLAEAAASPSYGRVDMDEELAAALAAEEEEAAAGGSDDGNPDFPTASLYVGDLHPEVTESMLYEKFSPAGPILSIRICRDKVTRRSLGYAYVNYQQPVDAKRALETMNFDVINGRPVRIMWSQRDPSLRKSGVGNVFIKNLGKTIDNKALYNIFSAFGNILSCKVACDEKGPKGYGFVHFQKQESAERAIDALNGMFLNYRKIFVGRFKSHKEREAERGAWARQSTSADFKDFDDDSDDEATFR
Sequence,7-mer Z-score
GACAGUA,0.0551
CGCUGGU,-0.0808
CGGUCAU,0.0243
ACGCUAC,-0.0971
UGCCAAA,0.818
AUAGUCC,-0.246
AGUAGGU,0.0805
GCGCGGC,-0.0844
GUUAGCU,-0.19
GAUGGGG,0.515
CCACCCG,-0.217
CCGCAGU,-0.199
UAUACAC,0.0134
AUACCAG,-0.0174
AAUACUC,0.0315
CUCUCAG,-0.4
CUGGCGA,-0.0844
AACUGCG,0.000733
AAGCAAA,0.901
UUUAGGU,0.0388

# Set 3 — technique: universal PBM; form: double-stranded DNA, one strand shown; sample: in vitro; concentration: 600 nM; direction: higher = stronger binding
# Target: Sal-like protein 4, full length isoform A (SALL4, Homo sapiens, UniProt Q9UJQ4, residues 1-1053)
# Chain of UniProt Q9UJQ4 (whole entry, looked up): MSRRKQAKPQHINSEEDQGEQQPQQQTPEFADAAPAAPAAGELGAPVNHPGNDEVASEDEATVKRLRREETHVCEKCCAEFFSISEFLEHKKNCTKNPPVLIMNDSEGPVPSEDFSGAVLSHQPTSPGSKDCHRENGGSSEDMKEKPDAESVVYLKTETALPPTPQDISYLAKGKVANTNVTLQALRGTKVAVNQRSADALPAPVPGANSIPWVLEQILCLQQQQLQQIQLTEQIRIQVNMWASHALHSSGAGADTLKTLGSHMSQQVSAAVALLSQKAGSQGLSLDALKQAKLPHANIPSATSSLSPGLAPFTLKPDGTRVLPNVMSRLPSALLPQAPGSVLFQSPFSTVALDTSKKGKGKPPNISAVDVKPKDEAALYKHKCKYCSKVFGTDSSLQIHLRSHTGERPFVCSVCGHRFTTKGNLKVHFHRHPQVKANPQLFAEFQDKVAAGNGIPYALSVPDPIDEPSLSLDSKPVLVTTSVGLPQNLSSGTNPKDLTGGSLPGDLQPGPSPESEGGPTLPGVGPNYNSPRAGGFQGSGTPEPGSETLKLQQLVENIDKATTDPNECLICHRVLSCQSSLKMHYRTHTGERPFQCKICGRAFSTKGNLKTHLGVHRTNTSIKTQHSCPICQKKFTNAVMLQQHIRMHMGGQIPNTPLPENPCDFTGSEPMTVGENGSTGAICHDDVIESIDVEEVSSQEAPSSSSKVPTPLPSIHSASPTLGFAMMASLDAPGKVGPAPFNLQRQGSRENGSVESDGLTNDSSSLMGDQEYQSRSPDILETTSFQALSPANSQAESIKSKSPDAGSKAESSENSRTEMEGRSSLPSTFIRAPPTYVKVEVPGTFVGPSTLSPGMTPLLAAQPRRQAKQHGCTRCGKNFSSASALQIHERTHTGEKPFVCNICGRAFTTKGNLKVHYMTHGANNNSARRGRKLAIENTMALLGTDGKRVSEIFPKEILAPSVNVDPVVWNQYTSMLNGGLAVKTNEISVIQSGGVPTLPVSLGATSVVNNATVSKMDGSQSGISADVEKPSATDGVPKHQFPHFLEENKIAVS
# Notes: 8-mer, flanks averaged, mean of replicates
Sequence,E-score
GAAACGTC,-0.122
GGGGACGA,-0.165
AAGTCCGT,-0.121
AATAAAAC,0.29
AAGACGCG,-0.108
TAAAGGAA,0.15
GCATGCCA,-0.266
CTTGCACC,-0.145
AAGTTTGG,0.142
CGAAATTC,0.122
TGGTGTAA,0.0173
GTTCCGAA,0.00431
TATAGTAA,0.322
ACGGAGCC,-0.335

# Set 4 — technique: DHFR PCA, deep sequencing; sample: yeast; together with: (+)-ABA 1.4 µM; baseline: wild-type fitted maximum; direction: higher = stronger binding
# Target: ABI1, truncated, D143A, DHFR fusion (Arabidopsis thaliana)
# Notes: methotrexate growth selection, single substitutions
# Starting sequence: PYL1, truncated, DHFR fusion (Arabidopsis thaliana); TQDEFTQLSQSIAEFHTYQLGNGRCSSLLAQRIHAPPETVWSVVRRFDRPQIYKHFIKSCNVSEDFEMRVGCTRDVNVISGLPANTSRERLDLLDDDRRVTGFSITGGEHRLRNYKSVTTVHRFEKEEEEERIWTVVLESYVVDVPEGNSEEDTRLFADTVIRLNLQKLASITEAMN; partner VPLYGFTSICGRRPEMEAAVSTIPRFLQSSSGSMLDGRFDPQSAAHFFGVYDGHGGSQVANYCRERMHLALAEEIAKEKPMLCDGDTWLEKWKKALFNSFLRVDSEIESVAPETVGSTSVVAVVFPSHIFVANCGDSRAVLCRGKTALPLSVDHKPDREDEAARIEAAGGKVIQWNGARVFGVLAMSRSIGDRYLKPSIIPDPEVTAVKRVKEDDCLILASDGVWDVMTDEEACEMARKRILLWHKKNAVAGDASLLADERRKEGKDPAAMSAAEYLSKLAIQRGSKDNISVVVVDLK
Variant,relative binding score
R132K,80%
I12Q,-0.22%
V70C,11.9%
S87G,-6.85%
L29F,-2.69%
V76E,-6.72%
Y18S,3.83%
D3V,25.1%
L166P,22.3%
L93N,16.4%
R74Y,-3.69%
A158V,87%

# Set 5 — technique: RNA Bind-n-Seq; form: RNA; sample: in vitro; concentration: not given; notes: 4-mer, random 30-nt RNA, single round; together with: RocA, ADP, phosphate; baseline: input library; direction: higher = stronger binding
# Target: ATP-dependent RNA helicase DDX3X, helicase core (DDX3X, Homo sapiens, UniProt O00571, residues 132-607)
# Chain of UniProt O00571 (132-607, looked up): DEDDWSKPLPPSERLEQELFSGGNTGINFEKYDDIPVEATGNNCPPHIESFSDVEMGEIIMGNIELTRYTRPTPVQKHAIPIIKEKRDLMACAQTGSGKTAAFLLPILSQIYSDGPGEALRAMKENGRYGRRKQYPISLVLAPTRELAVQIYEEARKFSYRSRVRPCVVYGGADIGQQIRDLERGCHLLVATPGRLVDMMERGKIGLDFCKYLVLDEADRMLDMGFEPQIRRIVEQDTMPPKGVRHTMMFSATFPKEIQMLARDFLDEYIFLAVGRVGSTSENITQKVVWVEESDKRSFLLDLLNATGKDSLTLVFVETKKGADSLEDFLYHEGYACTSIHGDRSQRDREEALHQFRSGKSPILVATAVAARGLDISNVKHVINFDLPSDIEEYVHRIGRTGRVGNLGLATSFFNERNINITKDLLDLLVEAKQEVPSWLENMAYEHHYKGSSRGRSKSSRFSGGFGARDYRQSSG
Sequence,4-mer enrichment [fold]
CGGC,0.729
CCGG,0.767
ACAU,0.722
UAAG,1.12
UCUG,0.804
AAGA,1.47
AACU,0.728
GGAA,1.68
CUUA,0.714
UUUG,1.06
GUUC,0.808
GCUC,0.605
CAUU,0.716
UGGU,1.1

# Set 6 — technique: RNA Bind-n-Seq; form: RNA; sample: in vitro; concentration: not given; baseline: input RNA pool; direction: higher = stronger binding
# Target: RING finger protein unkempt homolog, zinc fingers 1-6, GST-SBP tag (UNK, Homo sapiens, UniProt Q9C0B0, residues 30-357)
# Notes: RNA with constant flanks, human and mouse sites, ends assumed
# All sequences stand within: GGGAGUUCUACAGUCCGACGAUC … CAACAGAGGAUUGAGCAUCA
# Residues (chain): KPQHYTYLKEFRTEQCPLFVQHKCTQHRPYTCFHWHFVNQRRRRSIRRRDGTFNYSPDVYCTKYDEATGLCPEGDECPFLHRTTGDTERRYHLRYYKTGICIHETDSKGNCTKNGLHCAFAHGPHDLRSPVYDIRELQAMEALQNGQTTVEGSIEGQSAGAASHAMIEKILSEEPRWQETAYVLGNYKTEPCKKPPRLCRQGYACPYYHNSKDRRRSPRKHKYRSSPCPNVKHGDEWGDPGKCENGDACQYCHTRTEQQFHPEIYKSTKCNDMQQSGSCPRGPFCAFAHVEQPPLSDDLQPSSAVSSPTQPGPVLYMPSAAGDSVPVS
Sequence,bound/input enrichment
UACAGCACCGUCUCUGGUGGCUACGCGGAAUUUGCUCUUGCAGCCGAUGACACUAUCUACCCCCUGCCCGAGACACUGAACUUCAGGCAGGGGGCUGCCCUGGGGAUCCCGUACUUCACG,0.0833 ratio
GAUGAUGAUCCUUACUAUUAUUAUUAUAAGUCCAGGAGAAAUCGCAGUAAAUUGAGGAAAAAGCUUGUUCCAUCCACAAAAAAAGGAAAAAGUCAACCAUUUAUCAAUCCCGAUUCACAA,0.109 ratio
UUUCACAUGAAUUGCUGGAAGAAGUUAAAAACUACAACCUUUAAUGAUAAAAUUGACAAGGAUUUUCUACAAGGAAUAUGUCUUACCCCUGACUGUGAAGGUGUCAUUUCUAAGAUUAUC,0.142 ratio
UCCCAGCCCCUCAUUAGAUUGUUUUCUUCCCAGAGCCCAGGGUCGUGAUAUAUACAUCUAAAUAGCGUUUUGCAUUAUUUCUAGAUGAGUGCAACUGUCAAAGCAAUAUGGGUUCACUGG,1.08 ratio
GAUAUGCACGUGGCCGACAUGCUGGUUAAGGUGAACGCACUUAUCAAGGAUCGGGAAGGUUAUGCUCCUGGCACAGAAUUCCACCGGUGCAAGGAGAUGUCUGAAUACUGCAGCACUCUG,0.111 ratio
GCUACAGGGCUCCUGGUGCUGAAGGACCUGGGCAUCCAAGUGGACCGCUACAUUGCCUCCGAGGUGUGUGAGGACUCCAUCACGGUGGGCAUGGUGCGGCACCAGGGAAAGAUCAUGUAC,0.0804 ratio
GGAGACUAGUUUCCGGCCUCAUUUUAAGGUUUCAUUUAUAAAUGUUCCUACUUAAAUCCUCCUUAGCAGACAAUUGGCUGGUAAAAUCAUUUUCUGUUAAUGAAGACAGUGGUUUUUAAG,0.467 ratio
UUAAUGUUCUUAAUAAAGUGUUCUUGGAGUUUAACCUAGCAGCGGAUGGCUUUCUUUAGCUUAGCCCAGUUUCCAGGGAAGCAUUGUUUUUUCCAGGCUGUAAAAUGGCAGAAUCUCCUG,0.439 ratio
GCCAUUUUUCCAGAUGGGACUCACAAUGACACAUGGCAGUGCCAAGGCUAUUUCACUGCACUUGAACAGUUCAUCAAAGAAGUCGUAAAGAGCCAUUCUCCUGAAGAAAUGGCAAAAACU,0.117 ratio
AAACAUGGAUGUGGUGGCAUAACUUUCGGACUCUGUGUGACUAUAGCAAGAGAAUUGCAGUAGGUAAGUCCACAAGGGUUCUGAGAUAUGAGCGGCCUCCUAGAAAUGAGAAUCAACAGG,0.208 ratio
UUCCACCCCUGGGCCAUGAAUGGUGAUGAGUCAGUGCUACUGGACAUCAUCAAGGAGAAAGAUGCUGUGGAGAAGCCCAUUCUUUCAUCCGAAGAGUUGGCAGGCCCUGUGAAUUGUGAA,0.18 ratio

# Set 7 — target: CCNE1, cyclin fold, Cln2 fusion (human); technique: yeast growth competition, sequencing; sample: yeast; notes: weak parent motif; baseline: not given; direction: higher = stronger binding
# Starting sequence: PKN2 docking peptide (human); VSAVQKLDFSDTM
Variant,normalised enrichment score
VHAVQKLDFSDTM [S2H],0.222
VSAVQKLDFLDTM [S10L],-0.207
TSAVQKLDFSDTM [V1T],0.825
VSAVQKLDFSDTG [M13G],0.971
VKAVQKLDFSDTM [S2K],0.175
VSAVQKLDFYDTM [S10Y],1.1
VSAVQKLDFRDTM [S10R],0.446
VSAVQKLGFSDTM [D8G],0.11
ASAVQKLDFSDTM [V1A],0.546
VSAVQQLDFSDTM [K6Q],0.473
VSAVQKLYFSDTM [D8Y],0.868
VRAVQKLDFSDTM [S2R],0.878
VSAVQKLDFSDNM [T12N],0.414
VGAVQKLDFSDTM [S2G],0.997
VSAVQKLHFSDTM [D8H],0.429
VSAWQKLDFSDTM [V4W],-0.179
VSAVQKLCFSDTM [D8C],0.433

# Excerpt of the above (set 7):
Variant,normalised enrichment score
VSAVQKLYFSDTM [D8Y],0.868
VSAVQKLCFSDTM [D8C],0.433
TSAVQKLDFSDTM [V1T],0.825
VHAVQKLDFSDTM [S2H],0.222
VSAVQKLDFRDTM [S10R],0.446
VRAVQKLDFSDTM [S2R],0.878
VSAVQKLDFLDTM [S10L],-0.207
VKAVQKLDFSDTM [S2K],0.175
VSAWQKLDFSDTM [V4W],-0.179
VSAVQKLHFSDTM [D8H],0.429
VSAVQKLGFSDTM [D8G],0.11
VSAVQQLDFSDTM [K6Q],0.473
VGAVQKLDFSDTM [S2G],0.997
VSAVQKLDFSDTG [M13G],0.971
VSAVQKLDFYDTM [S10Y],1.1
